# Experimental data collected from several papers.
# Every numbered part comes from another study and shows a few of its results, in no order. Positions count from the first letter of the parent shown.

# Study 1
# Target: CCNB2, cyclin fold, Cln2 fusion (human)
# Technique: yeast growth competition, sequencing
# Matrix: yeast
# Setting: weak parent motif
# Reference: not given
# Direction: higher = stronger binding
# Parent: RP1L1 docking peptide (human); TLGLGPLSFTLED; partner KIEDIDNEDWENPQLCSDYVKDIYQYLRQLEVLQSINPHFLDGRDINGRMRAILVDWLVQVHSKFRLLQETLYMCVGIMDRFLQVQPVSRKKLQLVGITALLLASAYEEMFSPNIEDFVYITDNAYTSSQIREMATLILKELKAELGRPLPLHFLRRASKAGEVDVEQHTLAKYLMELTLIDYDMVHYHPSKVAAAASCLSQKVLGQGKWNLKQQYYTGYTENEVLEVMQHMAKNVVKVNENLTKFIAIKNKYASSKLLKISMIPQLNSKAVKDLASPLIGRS
Change,normalised enrichment score
TAGLGPLSFTLED [L2A],-0.885
TLGLGPLAFTLED [S8A],-0.984
TLGLGPLSFTLAD [E12A],-0.934
TLGLGALSFTLED [P6A],-0.782
TLGAGPLSFTLED [L4A],-0.832
TLGLGPLSFALED [T10A],-0.79

# Study 2
# Target: Sox, HMG box (Pigoraptor chileana)
# Technique: Spec-seq
# Form: double-stranded DNA, one strand shown
# Matrix: in vitro
# Tested at: not given
# Setting: whole probe, mean of replicates
# Reference: not given
# Direction: lower = stronger binding
# Constant ends, left off below: GAGTCGTCTCGTCAGCAC … CCGTAGAGCACTCAGGTC
# Residues (chain): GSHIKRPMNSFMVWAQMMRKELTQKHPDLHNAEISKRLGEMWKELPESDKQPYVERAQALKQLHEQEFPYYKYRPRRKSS
Oligonucleotide,relative binding energy [ln ratio]
CATAGAG,-0.482
TCAGGTT,0.908
CATTCGG,0.673
GACCGTT,1.06
CATGGGC,0.465
CATATCC,0.505
CATGCAA,0.457
CATTGCT,-0.0166
CATGAGC,0.399

# Study 3
# Target: Sal-like protein 4, full length isoform A (SALL4, Homo sapiens, UniProt Q9UJQ4, residues 1-1053)
# Sequence of UniProt Q9UJQ4 (whole entry, looked up): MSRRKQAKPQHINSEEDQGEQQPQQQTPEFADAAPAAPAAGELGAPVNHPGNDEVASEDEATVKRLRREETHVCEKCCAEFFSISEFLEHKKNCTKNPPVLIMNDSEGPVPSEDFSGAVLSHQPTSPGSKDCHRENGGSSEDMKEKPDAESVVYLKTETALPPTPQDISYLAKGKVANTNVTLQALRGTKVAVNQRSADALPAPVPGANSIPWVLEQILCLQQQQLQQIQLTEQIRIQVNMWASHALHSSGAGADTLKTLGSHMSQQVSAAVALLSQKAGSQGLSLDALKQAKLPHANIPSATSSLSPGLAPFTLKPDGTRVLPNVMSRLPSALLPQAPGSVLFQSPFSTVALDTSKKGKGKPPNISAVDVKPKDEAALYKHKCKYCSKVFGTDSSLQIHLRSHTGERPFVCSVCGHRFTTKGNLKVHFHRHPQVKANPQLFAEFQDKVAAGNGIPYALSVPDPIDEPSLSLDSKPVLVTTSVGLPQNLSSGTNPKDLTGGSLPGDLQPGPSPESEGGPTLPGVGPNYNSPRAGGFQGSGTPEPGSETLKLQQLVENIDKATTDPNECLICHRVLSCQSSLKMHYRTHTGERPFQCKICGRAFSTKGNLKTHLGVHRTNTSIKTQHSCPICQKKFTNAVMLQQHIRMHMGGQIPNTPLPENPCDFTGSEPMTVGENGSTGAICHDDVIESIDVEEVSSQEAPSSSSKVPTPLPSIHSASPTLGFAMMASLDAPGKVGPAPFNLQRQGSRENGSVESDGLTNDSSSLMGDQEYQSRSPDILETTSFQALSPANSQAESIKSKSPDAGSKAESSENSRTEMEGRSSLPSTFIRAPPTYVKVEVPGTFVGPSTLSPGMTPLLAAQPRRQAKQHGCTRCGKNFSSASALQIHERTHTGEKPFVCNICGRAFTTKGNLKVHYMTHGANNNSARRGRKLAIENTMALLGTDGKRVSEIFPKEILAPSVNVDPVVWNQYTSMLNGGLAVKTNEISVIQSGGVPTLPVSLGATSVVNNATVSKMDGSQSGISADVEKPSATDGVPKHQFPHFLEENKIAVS
# Technique: universal PBM
# Form: double-stranded DNA, one strand shown
# Matrix: in vitro
# Tested at: 600 nM
# Setting: 8-mer, flanks averaged, mean of replicates
# Direction: higher = stronger binding
Oligonucleotide,E-score
CTAATAGA,0.248
CGCCCTAC,-0.0337
AGGGGGCC,-0.381
CCGGCGCG,-0.274
ACTGTCGG,-0.229
ATGTTCAA,0.0992
GCTAATAA,0.275
CCACAGCC,-0.264
AGGCGCAC,-0.245
AACATCAT,0.275
CGGGCTCA,-0.286

# Mixed results
Molecule,target,test,test system,conditions,scale,endpoint,result
"PhoQ, residues 284 288 289 292 302 303 QWGLFV","PhoP, residues 12 14 15 18 19 GQAIL (Escherichia coli, UniProt P23836)","Sort-seq, item: YFP reporter",E. coli,"PhoQ-PhoP variant library, with: 10 µM Mg2+","reference: high Mg2+ state, higher = stronger signaling",fold induction,1.59

# A few entries again (study 3):
Oligonucleotide,E-score
ACTGTCGG,-0.229
CGGGCTCA,-0.286
AGGCGCAC,-0.245
CCACAGCC,-0.264
